Measured values gathered from unrelated publications.
Every numbered part comes from another study and shows a few of its results, in no order.

Set 1 — method: protein-binding microarray; molecule type: double-stranded DNA, one strand shown; medium: in vitro; tested at: 250 nM; notes: 60-bp whole probe; added: salmon DNA 0.4 mg/ml; relative to: random background probes; direction: higher = stronger binding
Target: Interferon regulatory factor 7, full length, phosphomimetic (IRF7, Homo sapiens, UniProt Q92985, residues 1-503, S101K/S471D/S472D/S475D/S476D/S477D/S483D/S484D/S487D)
Construct (chain): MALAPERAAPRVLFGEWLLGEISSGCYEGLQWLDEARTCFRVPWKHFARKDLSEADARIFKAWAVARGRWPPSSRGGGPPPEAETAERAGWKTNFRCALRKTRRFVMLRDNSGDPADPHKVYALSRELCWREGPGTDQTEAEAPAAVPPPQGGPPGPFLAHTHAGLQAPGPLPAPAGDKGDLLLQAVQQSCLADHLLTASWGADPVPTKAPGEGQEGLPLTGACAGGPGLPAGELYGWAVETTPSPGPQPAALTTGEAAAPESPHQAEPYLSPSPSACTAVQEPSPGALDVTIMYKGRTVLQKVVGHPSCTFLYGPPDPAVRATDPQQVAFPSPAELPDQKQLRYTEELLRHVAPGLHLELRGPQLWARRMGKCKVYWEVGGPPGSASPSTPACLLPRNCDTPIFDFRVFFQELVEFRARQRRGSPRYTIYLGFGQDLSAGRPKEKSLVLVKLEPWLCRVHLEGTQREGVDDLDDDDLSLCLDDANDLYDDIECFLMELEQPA
Strand	log fluorescence [z-score]
GCCTAGCACGACGATCTCAGTCTCCAGACGTGCTAGGTCTTGATTCGCTTGACGCTGCTG	-0.248
GCCTAGCACTCAGGTCTTCACTTGGCACTGTGCTAGGTCTTGATTCGCTTGACGCTGCTG	-0.0245
GCCTAGCACGACGAATCCAGTTTCGAGACGTGCTAGGTCTTGATTCGCTTGACGCTGCTG	4.82
GCCTAGCACGTCACATTGTGCAATCTTAATGTGCTAGTCTTGATTCGCTTGACGCTGCTG	0.58

Set 2 — method: universal PBM; molecule type: double-stranded DNA, one strand shown; medium: in vitro; tested at: 600 nM; direction: higher = stronger binding
Target: Sal-like protein 4, full length isoform A (SALL4, Homo sapiens, UniProt Q9UJQ4, residues 1-1053)
Sequence of UniProt Q9UJQ4 (whole entry, looked up): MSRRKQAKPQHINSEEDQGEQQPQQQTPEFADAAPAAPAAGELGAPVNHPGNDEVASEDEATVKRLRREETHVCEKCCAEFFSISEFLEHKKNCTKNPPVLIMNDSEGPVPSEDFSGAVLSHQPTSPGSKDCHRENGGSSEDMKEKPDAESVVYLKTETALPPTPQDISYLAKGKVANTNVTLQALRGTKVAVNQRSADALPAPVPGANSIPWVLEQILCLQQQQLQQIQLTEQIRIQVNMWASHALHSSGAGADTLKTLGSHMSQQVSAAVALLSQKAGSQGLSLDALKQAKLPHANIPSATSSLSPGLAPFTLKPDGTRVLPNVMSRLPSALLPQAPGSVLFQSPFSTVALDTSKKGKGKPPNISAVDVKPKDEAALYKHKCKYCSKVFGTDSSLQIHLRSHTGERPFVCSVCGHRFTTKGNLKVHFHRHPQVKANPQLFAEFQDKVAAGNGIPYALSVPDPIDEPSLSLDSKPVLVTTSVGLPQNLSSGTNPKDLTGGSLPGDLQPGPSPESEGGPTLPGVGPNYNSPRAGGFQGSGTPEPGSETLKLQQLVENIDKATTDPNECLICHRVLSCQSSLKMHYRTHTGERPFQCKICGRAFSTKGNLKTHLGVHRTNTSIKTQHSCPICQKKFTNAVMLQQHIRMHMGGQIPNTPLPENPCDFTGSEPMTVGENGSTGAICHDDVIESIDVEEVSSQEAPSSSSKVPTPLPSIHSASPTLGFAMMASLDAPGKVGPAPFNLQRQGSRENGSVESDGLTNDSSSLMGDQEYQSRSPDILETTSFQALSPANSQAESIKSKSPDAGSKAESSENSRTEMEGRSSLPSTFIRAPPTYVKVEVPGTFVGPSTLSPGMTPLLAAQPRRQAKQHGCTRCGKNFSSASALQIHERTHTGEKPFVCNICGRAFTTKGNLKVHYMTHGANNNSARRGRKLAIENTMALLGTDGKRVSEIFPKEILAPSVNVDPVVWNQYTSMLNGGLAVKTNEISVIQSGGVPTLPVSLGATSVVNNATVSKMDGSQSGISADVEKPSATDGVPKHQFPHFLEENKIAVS
Notes: 8-mer, flanks averaged, mean of replicates
Strand	E-score
GGCAGCGA	-0.288
GTGGCTGA	-0.199
ATTGCTTC	0.112
CCAACCGG	-0.346
AGATAGAA	0.107
TTAGGCAA	0.0344

Set 3 — method: protein binding microarray; molecule type: double-stranded DNA, one strand shown; medium: in vitro; tested at: not given; relative to: not given; direction: higher = stronger binding
Target: Histone acetyltransferase KAT6A, winged helix 1, GST fusion (KAT6A, Homo sapiens, UniProt Q92794, residues 1-85)
Notes: 8-mer, flanks averaged, mean of 2 arrays, mostly near background
Construct (chain): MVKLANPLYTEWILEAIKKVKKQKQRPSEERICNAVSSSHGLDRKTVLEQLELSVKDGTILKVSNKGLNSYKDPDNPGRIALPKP
Strand	E-score
CTGTCGGC	0.332
AGCGTTGC	0.153
ACACGGAA	0.212
GTCTGCCA	0.0113

Other studies, line by line
Substance	target	assay	system	setting	how to read	quantity	result
PhoQ, residues 284 288 289 292 302 303 SQSLSM	PhoP, residues 12 14 15 18 19 GQAIL (Escherichia coli, UniProt P23836)	Sort-seq, measured: YFP reporter	E. coli	PhoQ-PhoP variant library, added: 10 µM Mg2+	relative to: high Mg2+ state, higher = stronger signaling	fold induction	19.1

Excerpt of the above (set 2):
Strand	E-score
TTAGGCAA	0.0344
